Results collected from several papers.
“And” joins repeats or separate records; there may be more than shown. ± marks the error that the study gave.

Under “nasal obstruction incidence”, `CCCOc1ccc(NC(=O)CN2CCN(C)CC2)cc1-c1nc(CC)c(CC)c(=O)[nH]1` is recorded as 13.3% (healthy Chinese men; 10 mg, with: alcohol 0.5 g/kg).
`Cc1c(-c2ccc(N3CCc4cccc(C(=O)Nc5nc6ccccc6s5)c4C3)nc2C(=O)O)cnn1CC12CC3(C)CC(C)(C1)CC(OCCNCC[C@H](O)CO)(C3)C2`: “mean arterial pressure change” 2 mmHg (beagle dog, anaesthetised; intravenous infusion, 0.1 mg/kg/min, 75 min; reference: baseline).
`CN(CCC(=O)O)C(=O)c1ccc2c(c1)CC[C@@H]1[C@@H]2CC[C@]2(C)C(c3cncc(F)c3)=CC[C@@H]12`: “indirect bilirubin change” 0.38 mg/dL (premenopausal women, endometriosis pain, serum; 60 mg twice daily, visit 4, median; reference: baseline).
Under “subjects with TEAE”, `CC(C)(C(=O)N1CCOc2c(C#N)cncc2C1)C(F)F` is recorded as 12.5% (measured: tandem gait test abnormal; human, both sexes; oral, 20 mg twice daily, 14 days, multiple ascending dose).
Under “post lumbar puncture syndrome”, `O=C(COc1ccc(Cl)cc1)NC12CC(c3nnc([C@H]4C[C@@H](OC(F)(F)F)C4)o3)(C1)C2` is recorded as 2.9% (humans, MAD; oral, dose not given, 14 days, all compound doses).
`CC(C)C[C@H](NC(=O)[C@@H](Cc1c[nH]c2ccccc12)NC(=O)[C@H](Cc1ccc(O)cc1)NC(=O)[C@H](CO)NC(=O)[C@H](Cc1c[nH]c2ccccc12)NC(=O)[C@H](Cc1c[nH]cn1)NC(=O)[C@@H]1CCC(=O)N1)C(=O)N[C@@H](CCCNC(=N)N)C(=O)N1CCC[C@H]1C(=O)NCC(N)=O`: “patients, drug-related metabolic TEAEs” 25% (Chinese CPP children, boys; intramuscular, 22.5 mg, 12 months, day 1, month 6).
`C=CCN1CC(=O)N2[C@@H](Cc3ccc(O)cc3F)C(=O)N(Cc3cccc(N4CC(N5CCN(CC)CC5)C4)n3)C[C@@H]2N1C(=O)NCc1ccccc1` has a treatment-related diarrhoea of 0% (advanced solid tumour patients; oral, 160 mg twice daily, grade ≥3, dose-escalation).
`CN[C@H](CC(C)C)C(=O)N[C@H]1C(=O)N[C@@H](CC(N)=O)C(=O)N[C@H]2C(=O)N[C@H]3C(=O)N[C@H](C(=O)N[C@H](C(=O)O)c4cc(O)cc(O)c4-c4cc3ccc4O)[C@H](O)c3ccc(c(Cl)c3)Oc3cc2cc(c3O[C@@H]2O[C@H](CO)[C@@H](O)[C@H](O)[C@H]2O[C@H]2C[C@](C)(N)[C@H](O)[C@H](C)O2)Oc2ccc(cc2Cl)[C@H]1O` — result for “absorption rate constant”: 0.08 h⁻¹ (electrochemical aptamer sensor; male C57BL/6J mouse, hippocampus; intravenous bolus, 35 mg/kg).
The median half-life of `COc1ncc(-c2nc3c(n2C(C)C)[C@H](c2ccc(Cl)cc2)N(c2cc(Cl)cn(C)c2=O)C3=O)c(OC)n1` is reported as 11 h (human patients, plasma; oral, 50 mg, high-dose arm, cycle 1 day 1).
With `CCc1c(-c2ccccc2)c(-c2ccccc2)nn1-c1ccccc1-c1cccc(OCC(=O)O)c1` the tissue concentration was 58.6 ng/g and 116 ng/g (Sprague-Dawley rat, -Brain; oral, 10 mg/kg, 4 h).
`O=C(O)C[C@H](O)C[C@H](O)/C=C/c1c(C2CC2)nc2ccccc2c1-c1ccc(F)cc1` gave a half-life of 1.9 h (FVB wild-type mouse, plasma; oral, 5 mg/kg, with: rifampin 20 mg/kg oral).
`Cc1ccc(Sc2ccccc2N2CCNCC2)c(C)c1` — result for “participants with TEAE”: 0% (measured: Somnolence; healthy adult men; oral, 5 mg daily, 12 days).
`CO[C@@H]1[C@H](OC(=O)N2CC(CCN3CCOCC3)C2)CC[C@]2(CO2)[C@H]1[C@@]1(C)O[C@@H]1CC=C(C)C` — result for “systolic blood pressure”: -4 ± 5.9 mmHg (humans; subcutaneous, 0.2 mg twice weekly for 4 weeks, day 28; reference: baseline).
Under “maximum ACTH level”, `N#Cc1ccc2c(c1)[C@H]1CCCN(C(=O)c3ccc4[nH]cnc4c3)[C@H]1C2` is recorded as 15.1 pmol/L (human; 10 mg, end of trial).
`CO[C@H]1C[C@@H]2CC[C@@H](C)[C@@](O)(O2)C(=O)C(=O)N2CCCC[C@H]2C(=O)O[C@H]([C@H](C)C[C@@H]2CC[C@@H](OC(=O)NCCOCCOCCOCCOCCOCCOCCOCCOCCC(=O)N3CCc4cc(Cn5nc(-c6ccc7oc(N)nc7c6)c6c(N)ncnc65)ccc4C3)[C@H](OC)C2)C[C@@H](O)[C@H](C)/C=C(\C)[C@@H](O)[C@@H](OC)C(=O)[C@H](C)C[C@H](C)/C=C/C=C/C=C/1C` has an AUClast of 0.466 µM·h (human patients, plasma; intravenous, 8 mg, cycle 1 day 15, weekly dosing, mean).
`O=C1Cc2cc(CCN3CCN(c4nsc5ccccc45)CC3)c(Cl)cc2N1` has a heart rate of 206 ± 0.4 beats/min (male Hartley guinea pigs, anaesthetized; intravenous, 0.1 mg/kg over 10 min, after infusion).
For `CCCCCCCCCCNCc1ccc(CNC(=O)c2csc3nc[nH]c(=O)c23)cc1`, the EC50 was > 100 µM (human red blood cells in PBS; 1 h, 37 °C, estimated, weak activity).
`Nc1nc2c(nc([N+](=O)[O-])n2[C@@H]2O[C@H](CO)[C@@H](O)[C@H]2O)c(=O)[nH]1`: “nucleoside remaining fraction” 0.95 (depurination, RP-HPLC; citrate-phosphate buffer 0.5 mM; 95 min, pH 5, 37 °C).
For `Cc1ccc([C@@H]2O[C@H](CO)[C@@H](O)[C@H](O)[C@H]2O)cc1Cc1ccc(-c2ccc(F)cc2)s1`, “urinary potassium excretion change” read 0.073 mEq (Japanese type 2 diabetes patients; 100 mg, day 5, 24 h urine collection; reference: baseline).
`CCOc1c([C@H](C)n2nc(C)c3c(N)ncnc32)cc(Cl)c(F)c1[C@@H]1CNC(=O)C1` has an ECG observations of 95.8% (measured: QTcF change ≤30 ms; previously treated B-cell malignancy; oral, 20 mg once daily, overall population; reference: baseline).
`O=C(N[C@H](Cc1c[nH]c2ccccc12)C(=O)Nc1ccncc1)c1ccc(-c2ccc(F)c(Cl)c2)cc1F` gave a concentration of 1680 nM (Swiss Webster mouse, female, plasma; oral, 50 mg/kg, 8 h, 20% HPβCD vehicle).
`O=C(O)/C=C/c1ccc(O[C@@H]2O[C@H](C(=O)O)[C@@H](O)[C@H](O)[C@H]2O)c(O)c1` — result for CSF concentration: “not detected” (human CSF; concentration not given, mean).
For `O=C(Nc1nc2cccc(-c3ccc(CN4CCS(=O)(=O)CC4)cc3)n2n1)C1CC1`, “treatment-emergent adverse events” read 0% (measured: pyrexia; rheumatoid arthritis patients; oral, 30 mg once daily, 4 weeks, any relatedness).
Under “blood TBA change”, `CCc1cc(C(=O)NC)c2nccc(N3CCc4c(cc(Cn5ccnc5)cc4-c4cn(C)nc4C(F)(F)F)C3=O)c2c1` is recorded as 164% (Sprague Dawley rats; oral, 100 mg/kg twice daily, 7 days; reference: vehicle).
Under CSF concentration, `O=C(O)Cc1ccc(O)c(O)c1` is recorded as “not detected” (human CSF; concentration not given, mean).
Under “AST increased dose reduction/interruption”, `CNC(=O)c1ccc(-c2cnc3ncc(Cc4ccc5ncccc5c4)n3n2)cc1F` is recorded as 2% (Japanese patients; oral, 400 mg, any grade).
`COc1cc(Nc2ncc3c(n2)-c2ccc(Cl)cc2C(c2c(F)cccc2OC)=NC3)ccc1C(=O)O` gave an anaemia incidence of 42% (patients; oral, dose not given, grade 2, any attribution, with: pembrolizumab).
`O=C1c2ccncc2C(=O)c2c1[nH]c1ccccc21` gave a tissue concentration of 0.003 ± 0.003 nmol/mg (Sprague-Dawley rat, female, lung; oral, 1 mg/kg, 24 h).
For `C=CC(=O)N1CCC([C@@H]2CCNc3c(C(N)=O)c(-c4ccc(Oc5ccccc5)cc4)nn32)CC1`, the MRT(0-t) was 5.56 ± 1.13 h (Sprague-Dawley rats, plasma; oral, 16 mg/kg, with: posaconazole 40 mg/kg).
The heart rate of `CC1(C)S[C@@H]2[C@H](NC(=O)[C@H](N)c3ccc(O)cc3)C(=O)N2[C@H]1C(=O)O` is reported as 214 ± 0.2 beats/min (male Hartley guinea pigs, anaesthetized; intravenous, 3 mg/kg over 10 min, after infusion).
Under “peripheral edema incidence (all grades)”, `CNC(=O)c1ccc(-c2cnc3ncc(Cc4ccc5ncccc5c4)n3n2)cc1F` is recorded as 40% (CTCAE v4.0, any causality; human cancer patients; oral, dose escalation).
`Cn1cc(Nc2nccc(-c3ccc4c(c3)CN(C3COC3)CC[C@H]4NC(=O)c3cn(C(C)(C)C)nn3)n2)cn1`: “non-switched memory B cell change” -20.5% (human, whole blood; 150 mg twice daily, day 14; reference: pre-dose baseline).
The heart rate of `O=C(CCCN1CCC(O)(c2ccc(Cl)cc2)CC1)c1ccc(F)cc1` is reported as 193 ± 0.6 beats/min (male Hartley guinea pigs, anaesthetized; intravenous, 1 mg/kg over 10 min, after infusion).
For `COc1ccnc(C(=O)O)c1O`, the KOC was 8870 mL/g (FOCUS PEARL groundwater modelling; soil; geometric mean input).
`COc1cc2nccc(Oc3ccc(NC(=O)c4cc5c(n(-c6ccccc6)c4=O)CCCC5=O)nc3)c2cc1OC` — result for “TEAEs leading to discontinuation”: 0% (patients with relapsed/refractory AML; oral, 6 mg once daily).
Under CSF concentration, `COc1cc(C=CC(=O)O)ccc1OS(=O)(=O)O` is recorded as “not detected” (human CSF; concentration not given, mean).
`CC(C)n1c(Nc2cccnc2)nc2cnc(Nc3ccc(N4CCN(C)CC4)cc3)nc21`: “subjects with adverse event” 0% (measured: diastolic blood pressure increased; healthy male subjects; oral, 100 mg, study, with: itraconazole).
For `O=C(Nc1cnccc1Cl)N1CCN(Cc2ccc3c(c2)OC(F)(F)O3)CC1`, “volunteers with adverse event” read 0% (measured: Presyncope; healthy elderly humans; 100 mg once daily, 10 days).
For `N[C@@H]1c2ccccc2OC12CCN(c1cnc3c(N4CCCc5ncccc54)n[nH]c3n1)CC2`, the AUC(0-tau) was 8210 ng·h/mL (advanced metastatic solid tumour patients, plasma; oral, 40 mg once daily, cycle 1 day 15, geometric mean).
For `CCN1CCN(Cc2ccc(NC(=O)c3ccc(C)c(NC(=O)c4cncc(-c5cccs5)c4)c3)cc2C(F)(F)F)CC1`, “mean plasma concentration” read 535 ng/mL (LC-MS/MS; C57BL/6 mouse, plasma; intraperitoneal, 30 mg/kg single dose, 1 h).
With `CN1C(=O)[C@@H](NC(=O)c2nnc(Cc3ccccc3)[nH]2)COc2cccnc21` the Tmax was 3.5 h (human, plasma; oral, 600 mg once daily, day 1, median).
For `CC[C@H](C)[C@H](NC(=O)[C@H](Cc1ccccc1)NC(=O)[C@H](CCC(=O)O)NC(=O)[C@H](CCCCNC(=O)COCCOCCNC(=O)COCCOCCNC(=O)CC[C@H](NC(=O)CCCCCCCCCCCCCCCCC(=O)O)C(=O)O)NC(=O)[C@H](C)NC(=O)[C@H](C)NC(=O)[C@H](CCC(N)=O)NC(=O)CNC(=O)[C@H](CCC(=O)O)NC(=O)[C@H](CC(C)C)NC(=O)[C@H](Cc1ccc(O)cc1)NC(=O)[C@H](CO)NC(=O)[C@H](CO)NC(=O)[C@@H](NC(=O)[C@H](CC(=O)O)NC(=O)[C@H](CO)NC(=O)[C@@H](NC(=O)[C@H](Cc1ccccc1)NC(=O)[C@@H](NC(=O)CNC(=O)[C@H](CCC(=O)O)NC(=O)C(C)(C)NC(=O)[C@@H](N)Cc1cnc[nH]1)[C@@H](C)O)[C@@H](C)O)C(C)C)C(=O)N[C@@H](C)C(=O)N[C@@H](Cc1c[nH]c2ccccc12)C(=O)N[C@@H](CC(C)C)C(=O)N[C@H](C(=O)N[C@@H](CCCNC(=N)N)C(=O)NCC(=O)N[C@@H](CCCNC(=N)N)C(=O)NCC(=O)O)C(C)C`, “QT change from baseline” read -22.3 ms (12-lead Holter ECG; healthy humans; subcutaneous, 1.5 mg once weekly, 18 h, steady state; reference: placebo).
`COc1cc2c3cc1Oc1c(OC)c(OC)cc4c1[C@@H](Cc1ccc(O)c(c1)Oc1ccc(cc1)C[C@@H]3N(C)CC2)N(C)CC4` has a remaining compound of 100% (mouse plasma, K3EDTA; 0 h, on ice).
`C[C@@H]1CCO[C@H]2Cn3cc(C(=O)NCc4ccc(F)cc4F)c(=O)c(O)c3C(=O)N12` gave an AUC(0-24) of 34700 ng·h/mL (population PK, post-hoc; children, 10 to <14 kg, plasma; oral, 8 mg granules, steady state, geometric mean).
`CN(C(=O)n1cnc(-c2cccnc2)c1)[C@H]1CC[C@H](O)CC1` gave a tissue concentration of 15.2 ± 0.9 ng/g (rat, cerebellum; oral, 10 mg/kg single dose, 1 h).

Some of these lines once more:
`COc1cc(Nc2ncc3c(n2)-c2ccc(Cl)cc2C(c2c(F)cccc2OC)=NC3)ccc1C(=O)O` gave an anaemia incidence of 42% (patients; oral, dose not given, grade 2, any attribution, with: pembrolizumab).
`O=C(O)/C=C/c1ccc(O[C@@H]2O[C@H](C(=O)O)[C@@H](O)[C@H](O)[C@H]2O)c(O)c1` — result for CSF concentration: “not detected” (human CSF; concentration not given, mean).
`C[C@@H]1CCO[C@H]2Cn3cc(C(=O)NCc4ccc(F)cc4F)c(=O)c(O)c3C(=O)N12` gave an AUC(0-24) of 34700 ng·h/mL (population PK, post-hoc; children, 10 to <14 kg, plasma; oral, 8 mg granules, steady state, geometric mean).
For `CC[C@H](C)[C@H](NC(=O)[C@H](Cc1ccccc1)NC(=O)[C@H](CCC(=O)O)NC(=O)[C@H](CCCCNC(=O)COCCOCCNC(=O)COCCOCCNC(=O)CC[C@H](NC(=O)CCCCCCCCCCCCCCCCC(=O)O)C(=O)O)NC(=O)[C@H](C)NC(=O)[C@H](C)NC(=O)[C@H](CCC(N)=O)NC(=O)CNC(=O)[C@H](CCC(=O)O)NC(=O)[C@H](CC(C)C)NC(=O)[C@H](Cc1ccc(O)cc1)NC(=O)[C@H](CO)NC(=O)[C@H](CO)NC(=O)[C@@H](NC(=O)[C@H](CC(=O)O)NC(=O)[C@H](CO)NC(=O)[C@@H](NC(=O)[C@H](Cc1ccccc1)NC(=O)[C@@H](NC(=O)CNC(=O)[C@H](CCC(=O)O)NC(=O)C(C)(C)NC(=O)[C@@H](N)Cc1cnc[nH]1)[C@@H](C)O)[C@@H](C)O)C(C)C)C(=O)N[C@@H](C)C(=O)N[C@@H](Cc1c[nH]c2ccccc12)C(=O)N[C@@H](CC(C)C)C(=O)N[C@H](C(=O)N[C@@H](CCCNC(=N)N)C(=O)NCC(=O)N[C@@H](CCCNC(=N)N)C(=O)NCC(=O)O)C(C)C`, “QT change from baseline” read -22.3 ms (12-lead Holter ECG; healthy humans; subcutaneous, 1.5 mg once weekly, 18 h, steady state; reference: placebo).
